{"data": "Experimental data of several laboratories", "note": "Parts stem from different laboratories: compare values within a part only. Positions count from the first letter of the parent shown."}
{"data": "Series 1", "target": "ABI1, truncated, D143A, DHFR fusion (Arabidopsis thaliana)", "method": "DHFR PCA, deep sequencing", "sample": "yeast", "setting": "methotrexate growth selection, single substitutions", "added": "(+)-ABA 0.39 µM", "reference": "wild-type fitted maximum", "reading": "higher = stronger binding", "parent": "PYL1, truncated, DHFR fusion (Arabidopsis thaliana); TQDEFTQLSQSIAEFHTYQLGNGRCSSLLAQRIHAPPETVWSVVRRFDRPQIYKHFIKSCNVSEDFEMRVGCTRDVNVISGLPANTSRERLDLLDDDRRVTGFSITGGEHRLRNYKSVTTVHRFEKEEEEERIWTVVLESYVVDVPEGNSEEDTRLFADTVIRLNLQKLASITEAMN; partner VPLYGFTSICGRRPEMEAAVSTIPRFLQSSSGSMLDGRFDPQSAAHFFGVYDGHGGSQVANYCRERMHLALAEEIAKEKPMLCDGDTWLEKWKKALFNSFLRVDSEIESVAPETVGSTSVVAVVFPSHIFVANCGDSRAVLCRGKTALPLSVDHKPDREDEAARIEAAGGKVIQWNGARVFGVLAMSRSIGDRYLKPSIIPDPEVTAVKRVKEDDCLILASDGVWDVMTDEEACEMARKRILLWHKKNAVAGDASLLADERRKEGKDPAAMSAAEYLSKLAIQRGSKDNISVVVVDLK"}
{"Change": "L29E", "relative binding score": "-5.41%"}
{"Change": "T106W", "relative binding score": "-5.4%"}
{"Change": "F47T", "relative binding score": "-15.5%"}
{"Change": "N61M", "relative binding score": "46.2%"}
{"Change": "T39N", "relative binding score": "10.2%"}
{"Change": "S26T", "relative binding score": "45%"}
{"Change": "S87W", "relative binding score": "26.1%"}
{"Change": "W134I", "relative binding score": "42.2%"}
{"Change": "I52A", "relative binding score": "46.9%"}
{"Change": "A13V", "relative binding score": "20.9%"}
{"Change": "H16G", "relative binding score": "-5.39%"}
{"Change": "E147F", "relative binding score": "18.8%"}
{"Change": "G107A", "relative binding score": "27.4%"}
{"Change": "V137E", "relative binding score": "-1.96%"}
{"Change": "D153Q", "relative binding score": "-8.7%"}
{"Change": "V136H", "relative binding score": "-11.9%"}
{"Change": "A30H", "relative binding score": "29.2%"}
{"Change": "N61T", "relative binding score": "67.5%"}
{"Change": "T17C", "relative binding score": "5.91%"}
{"Change": "E64A", "relative binding score": "46%"}
{"Change": "Y18C", "relative binding score": "0.845%"}
{"Change": "R32S", "relative binding score": "21.2%"}
{"Change": "R155L", "relative binding score": "16%"}
{"Change": "Q7R", "relative binding score": "33.7%"}
{"data": "Series 2", "target": "RNA binding protein fox-1 homolog 2, RRM domain, GST-SBP tag (RBFOX2, Homo sapiens, UniProt O43251-10, residues 100-194)", "method": "RNA Bind-n-Seq", "form": "RNA", "sample": "in vitro", "concentration": "365 nM", "setting": "natural RNA segment, single round, ends assumed", "reference": "no-protein control", "reading": "higher = stronger binding", "all sequences stand within": "GGGAGUUCUACAGUCCGACGAUC … UGGAAUUCUCGGGUGCCAA", "Construct (chain)": "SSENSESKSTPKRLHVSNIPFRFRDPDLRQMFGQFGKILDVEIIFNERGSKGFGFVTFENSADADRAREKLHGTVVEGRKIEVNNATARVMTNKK"}
{"Oligonucleotide": "UCAUCCUGGCUGGGAGAAGUGGGACCGAGCCACCCAGCCCCACUAUCCCCAAGCAGCCCUACAGCCGGGAUGGGAGGCACGUGGCCUCUCUUUUAUCCGUCUAUUUAUUU", "RBNS enrichment (R)": 0.382}
{"Oligonucleotide": "UCUCCUUUCUUUCAAGUGUCGUGAGUCGUCUUGAUUGUAUAUUGGAAAUAACUGUGUAACAAAUCGUAUUAUAAAUAUUUCAAUUAAUUUUACUCUGAAUUUGUUUAUUA", "RBNS enrichment (R)": 1.06}
{"Oligonucleotide": "CCACCACCUUGGAUGCAGCCACCACCACCACCGAUGAACCAGGGCCCCCACCCACCUGGGCACCAUGGCCCUCCUCCAAUGGGUAAGUCAGUACCUGGGAAGUACGCCUG", "RBNS enrichment (R)": 0.428}
{"Oligonucleotide": "CCCUCUCCACCUGCUGAGCUGAGCAAACCAGUAGAGGAAACAGGAUUGAUCUUAACUGAACGAAAACAAAACUGCAUAUGUACUUAAACAGUCUGCAUAUUUGCCAUCCA", "RBNS enrichment (R)": 0.317}
{"Oligonucleotide": "UACUGUGAACAUUCGAAUGCAUCUGUGGCCUUCGCCUCCCCAGCUGCCCUGUCCCUCCUUGGAAACAGCAGCUUUGCCGAGGGCUCCCCAGCUUCCAUCUCAGGAGACCA", "RBNS enrichment (R)": 0.466}
{"Oligonucleotide": "GAAAGGGACAGAUAGCUUUCCAAGGACAUGAGACUGUGCAAAGCCUCUUUGCUGUUUCUCUGGGCUCCUGAGCAUACCAGGGGAAGUUCUAGAAACCGCAGCUGACAUCU", "RBNS enrichment (R)": 0.289}
{"Oligonucleotide": "UAAGGAAUUUCUCAUCUGACAAUGGAACAGAAAUAGAAGCAUGGCCCCCACAGGCUGGGGACCAGUGGCAACCUGCAGCUACAACACUCCUAUCUCAGCGGAAUUCUAAA", "RBNS enrichment (R)": 0.26}
{"Oligonucleotide": "UGCAAUUAAGGUUGAUUACUUAUAAAUAUGAACUUUGGAUCACUGUAUAGACUGUUAAAUUUGAUUUCUUAUUACCUAUUGUUAAAUAAACUGUGUGAGACAGACACCUG", "RBNS enrichment (R)": 0.728}
{"Oligonucleotide": "AUGUGUGUGAGUAUGUGUGUAAAGACUAUGUGGCCAAAAUACCAUCUGGCCAGACGGGCCCACCCACUGACUGUCUGGUCUCAUUCUUUUCAAUCAAGAGGGCUGUGUUG", "RBNS enrichment (R)": 0.31}
{"Oligonucleotide": "AGGUCGUCCCCCACACAAACAUACCCCUUGCGCACCUUCUGCCUACUUUGAGCCGGAUCUGGCCUGUGACUAGAAGACCAACCCCUACGAGGAAAUGUGGAGCUCAACGU", "RBNS enrichment (R)": 0.329}
{"Oligonucleotide": "AUCAGAGGAAGGAUUUUAUAAAGAUUAAUAAAUUUAAUUUUACCAAUAAAUAUUCCCAUAAUUUAGAAAAGGAUGUCGACUUGCUAAUUUCAGAAAUAAUUAUUCAUUUU", "RBNS enrichment (R)": 0.82}
{"Oligonucleotide": "UGUCAGCAGCACAACACAAUCUAUAUGACUUUCUCUUUUGCACUUCACUUGUGUAUUUUACAGUGGUAGUAAAAUAUGUCUUCAACUGAUCAUUGCACUUAAAAUAUUAA", "RBNS enrichment (R)": 0.873}
{"data": "Series 3", "target": "RING finger protein unkempt homolog, zinc fingers 1-6, GST-SBP tag (UNK, Homo sapiens, UniProt Q9C0B0, residues 30-357)", "method": "RNA Bind-n-Seq", "form": "RNA", "sample": "in vitro", "concentration": "not given", "setting": "RNA with constant flanks, ends assumed", "reference": "input RNA pool", "reading": "higher = stronger binding", "all sequences stand within": "GGGAGUUCUACAGUCCGACGAUC … CAACAGAGGAUUGAGCAUCA", "Target sequence (chain)": "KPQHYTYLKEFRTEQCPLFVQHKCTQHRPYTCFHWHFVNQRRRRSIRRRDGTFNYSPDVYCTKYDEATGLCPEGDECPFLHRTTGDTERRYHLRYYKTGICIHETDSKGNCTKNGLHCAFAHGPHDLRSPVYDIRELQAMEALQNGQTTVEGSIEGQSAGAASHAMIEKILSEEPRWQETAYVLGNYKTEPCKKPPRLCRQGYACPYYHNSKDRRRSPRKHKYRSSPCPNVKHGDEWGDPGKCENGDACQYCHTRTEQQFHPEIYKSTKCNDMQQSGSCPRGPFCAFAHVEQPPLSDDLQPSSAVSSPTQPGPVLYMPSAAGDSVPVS"}
{"Oligonucleotide": "ACUUCCGGGAGGGGGCUUGGGUCCCUGGUGUGUGUGCUACGGGGUGCAGACUGUGUUUAAAACCGCAGGAACGCCAUGUCCCGGGGUUCCAGCGCCGGUUUUGACCGUCACAUUACUAUC", "bound/input enrichment [ratio]": 0.0925}
{"Oligonucleotide": "CUCCAGACACAAGUAGCUGAAAUGUCCCGAGUGAUACGUGAUCUGCAGUCCAGGAGCUGUUUCCGAUUUCAUCAUUCUAGGCCAAGUGAGAACUCCUCAGUUCCUUGGGACAUCUCCACC", "bound/input enrichment [ratio]": 0.269}
{"Oligonucleotide": "UCCGGUUUGGUGAUCAAUACAGCUGGAGAAAUGGCUGGAGCUUUUGUGGCAGUGUUUUUACCCGCAAUGUUCUAUGAAGGACUCAAGAUAGCCCGAGAGAGCCUGCUGCGUAAGUCACAA", "bound/input enrichment [ratio]": 0.114}
{"Oligonucleotide": "GUCCCGUUUGACUUUACACAUAAAAAACAAUCAGGUGGUGCAGGCCAGUAUGGAAAAGUAACCGGUGUCCUGGAGCCUCUGGACCCAGAGGACUACACUAAAUUGGAAUUUUCAGAUGAA", "bound/input enrichment [ratio]": 0.307}
{"Oligonucleotide": "UUAGCUGAGGACAAGCCUGGUCCAGGUCCAUUUUCUGAUCAGUCUGAACCUGCAAUAACUACCCGCCGUCCUGUGGCUUUUAACCCAUUUCUCAUCCCAGGAGUAUCUCCUGGACUCAUU", "bound/input enrichment [ratio]": 0.251}
{"Oligonucleotide": "ACAAAGCAGCUGACAGAAAUGCUUCCCAGCAUCCUCAACCAGCUUGGUGCAGACAGCCUGACCCGUUUAAGGAGACUGGCUGAAGCUCUGCCCAAACAAUCUGUGGAUGGAAAAGCACCC", "bound/input enrichment [ratio]": 0.0846}
{"Oligonucleotide": "AAACUCAAACAGACGUUGACUUUCUUUGAUGAGCUUCAUAAUGUUGGCAGAGAUCAUGGGACCCGUGAUUUUAGGGAGAGUUUAGUAUCCCUGGUUCAGAACUCCAGAAAACUACAGAAC", "bound/input enrichment [ratio]": 0.247}
{"Oligonucleotide": "GUUUUUAUACAGCCUCAAAUUGUUUUAUUAAAAAAAAAAAGAUUAAAAAAUGGUGAUGCUCCGCAGCAGUUUGUAUAAGCUCCUAGUGUCAACUCCAUGGGACUGAUGGCUUUGCUCAUU", "bound/input enrichment [ratio]": 0.858}
{"Oligonucleotide": "GAAUCUUCUGACAAUGAAGGUAGGCGUACAACUAGGAGAUUGCUGUCACGGAUAGCUUCCCGCAUGUCAUCUACUUUUUUCUCACGAAGAUCUAGUCAAGAUUCCUUGAAUACAAGAUCU", "bound/input enrichment [ratio]": 0.117}
{"Oligonucleotide": "GAAAAAUACUUCCAAUUCCAAGAAGAGGGCAAGGAAGGAGAGAACAGGGCAGUUAUCCAUUACCGGGAUGAUGAGACCAUGUAUGUUGAGUCUAAAAAGGACAGAGUCACAGUAGUCUUC", "bound/input enrichment [ratio]": 0.239}
{"Oligonucleotide": "UUCUUCAAACCUGGUAGUCAGUUUUUGUAUUCAACUUUUGGCUAUACCCUACUGGCAGCCACCGCCGAGAGAGCUUCAGGAUGUAAAUAUUUGGACUAUAUGCAGAAAAUAUUCCAUGAC", "bound/input enrichment [ratio]": 0.119}
{"data": "Series 4", "target": "CCNB2, cyclin fold, Cln2 fusion (human)", "method": "yeast growth competition, sequencing", "sample": "yeast", "setting": "weak parent motif", "reference": "not given", "reading": "higher = stronger binding", "parent": "SGO1 docking peptide (human); PLAKRALKYTDEK; partner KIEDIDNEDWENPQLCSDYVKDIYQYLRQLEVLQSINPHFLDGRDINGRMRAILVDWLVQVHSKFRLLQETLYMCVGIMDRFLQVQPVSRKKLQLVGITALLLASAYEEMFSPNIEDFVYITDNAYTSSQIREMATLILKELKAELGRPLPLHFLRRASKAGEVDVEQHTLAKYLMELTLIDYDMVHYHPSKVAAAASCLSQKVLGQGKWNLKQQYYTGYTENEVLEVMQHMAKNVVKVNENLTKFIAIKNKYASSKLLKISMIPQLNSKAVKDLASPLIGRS"}
{"Change": "PLAKRALKYTDAK [E12A]", "normalised enrichment score": 0.641}
{"Change": "PLAARALKYTDEK [K4A]", "normalised enrichment score": 0.176}
{"Change": "PLAKRALKATDEK [Y9A]", "normalised enrichment score": 0.372}
{"Change": "PLAKRALAYTDEK [K8A]", "normalised enrichment score": 0.692}
{"Change": "PLAKRALKYTDEA [K13A]", "normalised enrichment score": -0.0691}
{"Change": "PLAKRAAKYTDEK [L7A]", "normalised enrichment score": 0.533}
{"note": "Some of these lines once more (series 2):"}
{"Oligonucleotide": "CCACCACCUUGGAUGCAGCCACCACCACCACCGAUGAACCAGGGCCCCCACCCACCUGGGCACCAUGGCCCUCCUCCAAUGGGUAAGUCAGUACCUGGGAAGUACGCCUG", "RBNS enrichment (R)": 0.428}
{"Oligonucleotide": "CCCUCUCCACCUGCUGAGCUGAGCAAACCAGUAGAGGAAACAGGAUUGAUCUUAACUGAACGAAAACAAAACUGCAUAUGUACUUAAACAGUCUGCAUAUUUGCCAUCCA", "RBNS enrichment (R)": 0.317}
{"Oligonucleotide": "UACUGUGAACAUUCGAAUGCAUCUGUGGCCUUCGCCUCCCCAGCUGCCCUGUCCCUCCUUGGAAACAGCAGCUUUGCCGAGGGCUCCCCAGCUUCCAUCUCAGGAGACCA", "RBNS enrichment (R)": 0.466}
{"Oligonucleotide": "GAAAGGGACAGAUAGCUUUCCAAGGACAUGAGACUGUGCAAAGCCUCUUUGCUGUUUCUCUGGGCUCCUGAGCAUACCAGGGGAAGUUCUAGAAACCGCAGCUGACAUCU", "RBNS enrichment (R)": 0.289}
{"Oligonucleotide": "UAAGGAAUUUCUCAUCUGACAAUGGAACAGAAAUAGAAGCAUGGCCCCCACAGGCUGGGGACCAGUGGCAACCUGCAGCUACAACACUCCUAUCUCAGCGGAAUUCUAAA", "RBNS enrichment (R)": 0.26}
